Assay results collected from several papers.
Each line is one published result; not all experiments were run side by side. Several values in a cell are separate wells, animals, samples, runs or records.

SMILES	assay	system	conditions	how to read	measurement	result
C#Cc1c(F)ccc2cc(O)cc(-c3ncc4c(N5CC6CCC(C5)N6C(=O)OC(C)OC(=O)C(C)CC)nc(OC[C@@]56CCCN5C[C@H](F)C6)nc4c3F)c12 (some centres unmarked)		simulated gastric fluid	1 µM, 30 min, 37 °C		remaining prodrug	96.9%
CC[C@H](C)[C@H](NC(=O)[C@@H](NC(=O)[C@@H](NC(=O)[C@@H](NC(=O)[C@@H](N)CCCCN)C(C)C)C(C)C)C(C)C)C(=O)N[C@H](C(N)=O)[C@@H](C)O	LC-MS	pronase digest	200 µM, 10 min, pH 7.5, 37 °C, with: pronase 2.5 µg/mL		remaining intact peptide	91%
C=CCN1CCC23c4c5ccc(OC(=O)c6ccc(N)cc6)c4OC2C(=O)CCC3(O)C1C5 (centres unmarked)		human plasma	0 h		remaining compound	104% and 100% and 95.9%
C#Cc1c(F)ccc2cc(O)cc(-c3ncc4c(N5CC6CCC(C5)N6C(=O)OC(C)OC(=O)CC5CCOCC5)nc(OC[C@@]56CCCN5C[C@H](F)C6)nc4c3F)c12 (some centres unmarked)		simulated gastric fluid	1 µM, 30 min, 37 °C		remaining prodrug	103%
C=CCN1CCC23c4c5ccc(OC(=O)c6ccc(NC(=O)OC(C)(C)C)cc6)c4OC2C(=O)CCC3(O)C1C5 (centres unmarked)		rat plasma	0 h, no inhibitor		remaining compound	95.8% and 104% and 100%
Cc1cc(-c2ccc3ccccc3c2)nnc1NCCN1CCN(C)CC1		human liver microsomes	30 min		remaining compound	94.7%
CCCCCCCCCCCC(=O)C(C)C(=O)N1CCC[C@H]1C(=O)NC(C)(C)C(=O)NC(C)(C)C(=O)NC(C)(C)C(=O)N[C@](C)(CC)C(=O)NCCC(=O)N[C@@H](C)C(=O)N[C@](C)(CC)C(=O)N[C@@H](C)C(=O)N[C@@H](CC(C)C)C(=O)N[C@](C)(CC)C(=O)NCCC(=O)N[C@@H](C)C(=O)N[C@](C)(CC)C(=O)NCCC(=O)N[C@@H](C)C(=O)NC(C)(C)C(=O)NC(C)(C)C(=O)NC(C)(C)C(=O)N[C@@H](C)C(=O)N[C@@H](CC(=O)O)C(=O)O (some centres unmarked)	LC-MS	buffer with trypsin	40 µM, 720 min, pH 7.5, 37 °C	baseline: 0 h	remaining intact peptide	60.1% and 54.1%
C#Cc1c(F)ccc2cc(O)cc(-c3ncc4c(N5CC6CCC(C5)N6C(=O)OC(C)OC(=O)C(CC)CCCC)nc(OC[C@@]56CCCN5C[C@H](F)C6)nc4c3F)c12 (some centres unmarked)		simulated gastric fluid	1 µM, 30 min, 37 °C		remaining prodrug	93.4%
CC[C@H](C)[C@H](NC(=O)[C@@H](NC(=O)[C@H](CCCCN)NC(=O)[C@@H](NC(=O)[C@@H]1CCCN1[C@@H]1CN(C(=O)[C@@H](NC(=O)[C@@H](NC(=O)[C@@H](NC(=O)[C@@H](NC(=O)[C@@H](NC(=O)[C@@H](N)CCCCN)C(C)C)C(C)C)C(C)C)[C@@H](C)CC)[C@@H](C)O)CC[C@H]1NS(=O)(=O)c1ccc(C)cc1)[C@@H](C)O)C(C)C)C(=O)N[C@@H](CC(C)C)C(=O)N[C@@H](Cc1c[nH]cn1)C(N)=O	LC-MS	pronase digest	200 µM, 30 min, pH 7.5, 37 °C, with: pronase 2.5 µg/mL		remaining intact peptide	100%
CCN(CC)CCOc1ccc(-c2nnn(Cc3ccc(OC)cc3)c2N)cc1		human liver microsomes	concentration not given, time not given		remaining compound	73.4%
C=CCN1CCC23c4c5ccc(OC(=O)c6ccccc6)c4OC2C(=O)CCC3(O)C1C5 (centres unmarked)		rat plasma	0 h, with: loperamide 100 µM		remaining compound	100% and 104% and 95.7%
CC[C@H](C)[C@H](NC(=O)[C@@H](NC(=O)[C@H](CCCCN)NC(=O)[C@@H](N)[C@@H](C)O)C(C)C)C(=O)N[C@@H](CC(C)C)C(=O)N[C@@H](Cc1c[nH]cn1)C(N)=O	LC-MS	pronase digest	200 µM, 10 min, pH 7.5, 37 °C, with: pronase 2.5 µg/mL		remaining intact peptide	83%
CSCC[C@@H]1NC(=O)[C@H](C(C)C)NC(=O)[C@H](CCCNC(=N)N)NC(=O)[C@@H]2CCCN2C(=O)CNC(=O)[C@@H](NC(=O)CNC(=O)[C@H](CO)NC(=O)CNC(=O)[C@H](CO)NC(=S)Nc2ccc(C[C@H]3CN(CC(=O)O)CCN(CC(=O)O)CCN3CC(=O)O)cc2)CSSC[C@@H](C(N)=O)NC(=O)[C@@H]2CCCN2C(=O)CNC(=O)[C@H](CCC(=O)O)NC(=O)[C@H](CC(=O)O)NC(=O)[C@H](CC(=O)O)NC(=O)CNC(=O)[C@H](CC(C)C)NC(=O)[C@H](Cc2c[nH]cn2)NC(=O)[C@H](CC(C)C)NC(=O)CNC(=O)[C@H](Cc2c[nH]cn2)NC1=O [copper-64 labelled]	SE-HPLC	rat serum	1.2 µM, 1 h, 37 °C		remaining intact	> 90%
CC(C)[C@@H]1NC(=O)CNC(=O)[C@H](CC(N)=O)NC(=O)[C@H](CCCNC(=N)N)NC(=O)[C@H](Cc2ccc(O)cc2)NC(=O)[C@H](C(C)C)NC(=O)[C@@H](NC(=O)[C@@H](NC(=O)[C@H](CC(N)=O)NC(=O)[C@H](Cc2c[nH]c3ccccc23)NC(=O)[C@H](C)NC(=O)[C@H](Cc2ccccc2)NC(=O)CNC(=O)[C@H](CCCCN)NC(=O)[C@H](Cc2ccccc2)NC(=O)[C@H](Cc2ccccc2)NC(=O)[C@H](CCCCN)NC(=O)OCC2c3ccccc3-c3ccccc32)C(C)C)CSSC[C@@H](C(=O)N[C@@H](Cc2c[nH]cn2)C(=O)N[C@@H](CCCNC(=N)N)C(=O)N[C@@H](CCCNC(=N)N)C(=O)N[C@@H](C)C(=O)N[C@@H](CC(N)=O)C(N)=O)NC(=O)[C@H](C(C)C)NC(=O)[C@H](CCCNC(=N)N)NC1=O	HPLC	mouse mammary gland homogenate	2560 µM, 2.00 h, 37 °C, 50 mg/mL tissue		remaining peptide	81.8% and 86.6% and 87.9%
Cc1nnc(-c2ccc(CC(=O)NCCCC[C@H](NC(=O)c3ccc(OCc4ccc(B(O)O)cc4)c(-c4nc5ccccc5c(=O)[nH]4)c3)C(=O)NCC(=O)NCC(=O)NCC(=O)N[C@@H](Cc3ccccc3)C(=O)N[C@@H](Cc3ccccc3)C(=O)O)cc2)nn1	UPLC-MS/MS	human serum	100 µM, 3.5 h, 37 °C		remaining compound	81.5% and 82.2%
CC[C@H](C)[C@H](NC(=O)[C@H](Cc1ccccc1)NC(=O)[C@H](CCC(=O)O)NC(=O)[C@H](CCCCN)NC(=O)[C@H](C)NC(=O)[C@H](C)NC(=O)[C@H](CCC(N)=O)NC(=O)CNC(=O)[C@H](CCC(=O)O)NC(=O)[C@H](CC(C)C)NC(=O)[C@H](Cc1ccc(O)cc1)NC(=O)[C@H](CO)NC(=O)[C@H](CO)NC(=O)[C@@H](NC(=O)[C@H](CC(=O)O)NC(=O)[C@H](CO)NC(=O)[C@@H](NC(=O)[C@H](Cc1ccccc1)NC(=O)[C@@H](NC(=O)CNC(=O)N(CCC(=O)O)NC(=O)[C@H](C)NC(=O)N(N)Cc1c[nH]cn1)[C@@H](C)O)[C@@H](C)O)C(C)C)C(=O)N[C@@H](C)C(=O)N[C@@H](Cc1c[nH]c2ccccc12)C(=O)N[C@@H](CC(C)C)C(=O)N[C@H](C(=O)N[C@@H](CCCNC(=N)N)C(=O)NCC(=O)N[C@@H](CCCNC(=N)N)C(=O)NCC(=O)O)C(C)C	HPLC-UV	Tris-HCl buffer	0.1 mmol/l, 24 h, pH 7.4, 37 °C		remaining peptide	> 95%
C#Cc1c(F)ccc2cc(O)cc(-c3ncc4c(N5CC6CCC(C5)N6C(=O)OC(C)OC(=O)CCC5CCCC5)nc(OC[C@@]56CCCN5C[C@H](F)C6)nc4c3F)c12 (some centres unmarked)		simulated gastric fluid	1 µM, 30 min, 37 °C		remaining prodrug	102%
C[C@H](NC(=O)CNC(=O)[C@@H]1CCCN1C(=O)[C@H](CO)NC(=O)CNC(=O)[C@H](CO)NC(=O)[C@H](C)NC(=O)[C@H](CC(N)=O)NC(=O)[C@H](C)NC(=O)[C@H](CO)NC(=O)[C@H](C)NC(=O)[C@H](CO)NC(=O)[C@@H]1CCCN1C(=O)[C@H](Cc1ccccc1)NC(=O)[C@H](C)NC(=O)[C@H](CO)NC(=O)[C@@H]1CCCN1C(=O)[C@H](Cc1ccccc1)NC(=O)[C@@H](NC(=O)[C@H](CC(=O)O)NC(=O)[C@@H](N)CO)[C@@H](C)O)C(=O)N[C@@H](CCCNC(=N)N)C(=O)N[C@@H](CO)C(=O)O		50% mouse plasma	20 min		remaining peptide	1.03%
C#Cc1c(F)ccc2cc(O)cc(-c3ncc4c(N5CC6CCC(C5)N6C(=O)OC(C)OC(=O)[C@@H](N)C(C)C)nc(OC[C@@]56CCCN5C[C@H](F)C6)nc4c3F)c12 (some centres unmarked)		simulated gastric fluid	1 µM, 30 min, 37 °C		remaining prodrug	89.6%
CSCC[C@H](NC(=O)[C@H](CCCNC(=N)N)NC(=O)[C@H](CCCNC(=N)N)NC(=O)[C@H](CCCCN)NC(=O)[C@H](C)NC(=O)[C@H](CCCNC(=N)N)NC(=O)CNC(=O)[C@@H](N)[C@@H](C)O)C(=O)N[C@@H](CCC(N)=O)C(=O)N[C@@H](Cc1ccc(O)cc1)C(=O)N[C@@H](CC(N)=O)C(=O)N[C@@H](CCCNC(=N)N)C(=O)N[C@@H](CCCNC(=N)N)C(N)=O	HPLC peak area	50% human serum	100 µM, 1 h, pH 7.4, 37 °C	baseline: 0 h	remaining peptide	36.5% and 40% and 38.8%
